Measured values of several laboratories.
Protocols differ between the studies behind these lines. ± marks the error that the study gave.
rhlR: HTH-type quorum-sensing regulator RhlR (rhlR, Pseudomonas aeruginosa, UniProt P54292)
Chain of UniProt P54292 (whole entry, looked up): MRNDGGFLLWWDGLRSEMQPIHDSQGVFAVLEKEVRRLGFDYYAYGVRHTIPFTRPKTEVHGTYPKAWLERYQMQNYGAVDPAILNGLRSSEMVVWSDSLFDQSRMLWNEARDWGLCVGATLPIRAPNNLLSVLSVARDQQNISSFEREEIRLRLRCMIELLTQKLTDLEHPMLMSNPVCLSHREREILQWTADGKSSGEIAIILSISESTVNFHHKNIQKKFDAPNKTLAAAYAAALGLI
JAK3: Tyrosine-protein kinase JAK3 (JAK3, Homo sapiens, UniProt P52333)
Chain of UniProt P52333 (whole entry, looked up): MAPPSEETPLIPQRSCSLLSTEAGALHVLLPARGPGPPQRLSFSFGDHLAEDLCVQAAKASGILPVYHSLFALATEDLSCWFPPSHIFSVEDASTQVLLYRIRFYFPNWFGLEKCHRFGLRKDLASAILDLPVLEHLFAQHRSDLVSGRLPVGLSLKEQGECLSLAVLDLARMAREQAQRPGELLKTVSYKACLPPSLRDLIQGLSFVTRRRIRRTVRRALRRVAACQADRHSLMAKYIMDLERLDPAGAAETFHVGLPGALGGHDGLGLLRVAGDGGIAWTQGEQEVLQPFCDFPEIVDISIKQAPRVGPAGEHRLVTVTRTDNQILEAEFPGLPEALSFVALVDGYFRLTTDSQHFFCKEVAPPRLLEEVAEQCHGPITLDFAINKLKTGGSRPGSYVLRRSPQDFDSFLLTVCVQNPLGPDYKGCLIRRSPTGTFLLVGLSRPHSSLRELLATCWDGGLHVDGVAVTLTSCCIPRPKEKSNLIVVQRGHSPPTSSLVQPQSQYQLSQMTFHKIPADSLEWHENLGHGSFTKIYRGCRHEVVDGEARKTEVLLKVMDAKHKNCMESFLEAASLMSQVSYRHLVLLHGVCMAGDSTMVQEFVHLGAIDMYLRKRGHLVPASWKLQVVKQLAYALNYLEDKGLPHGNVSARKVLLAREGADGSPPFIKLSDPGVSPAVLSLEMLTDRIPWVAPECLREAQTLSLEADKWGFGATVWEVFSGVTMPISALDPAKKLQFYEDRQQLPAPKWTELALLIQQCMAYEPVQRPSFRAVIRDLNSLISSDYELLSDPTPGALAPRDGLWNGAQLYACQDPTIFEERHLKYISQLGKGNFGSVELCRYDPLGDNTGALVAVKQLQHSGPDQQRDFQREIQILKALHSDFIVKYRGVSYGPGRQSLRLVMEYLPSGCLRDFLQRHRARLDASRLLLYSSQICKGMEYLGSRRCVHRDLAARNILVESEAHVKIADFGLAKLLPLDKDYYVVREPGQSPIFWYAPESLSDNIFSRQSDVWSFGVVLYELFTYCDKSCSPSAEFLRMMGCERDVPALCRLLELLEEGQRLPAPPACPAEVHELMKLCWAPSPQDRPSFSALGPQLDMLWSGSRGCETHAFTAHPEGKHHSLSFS
Chain of UniProt Q92918 (whole entry, looked up): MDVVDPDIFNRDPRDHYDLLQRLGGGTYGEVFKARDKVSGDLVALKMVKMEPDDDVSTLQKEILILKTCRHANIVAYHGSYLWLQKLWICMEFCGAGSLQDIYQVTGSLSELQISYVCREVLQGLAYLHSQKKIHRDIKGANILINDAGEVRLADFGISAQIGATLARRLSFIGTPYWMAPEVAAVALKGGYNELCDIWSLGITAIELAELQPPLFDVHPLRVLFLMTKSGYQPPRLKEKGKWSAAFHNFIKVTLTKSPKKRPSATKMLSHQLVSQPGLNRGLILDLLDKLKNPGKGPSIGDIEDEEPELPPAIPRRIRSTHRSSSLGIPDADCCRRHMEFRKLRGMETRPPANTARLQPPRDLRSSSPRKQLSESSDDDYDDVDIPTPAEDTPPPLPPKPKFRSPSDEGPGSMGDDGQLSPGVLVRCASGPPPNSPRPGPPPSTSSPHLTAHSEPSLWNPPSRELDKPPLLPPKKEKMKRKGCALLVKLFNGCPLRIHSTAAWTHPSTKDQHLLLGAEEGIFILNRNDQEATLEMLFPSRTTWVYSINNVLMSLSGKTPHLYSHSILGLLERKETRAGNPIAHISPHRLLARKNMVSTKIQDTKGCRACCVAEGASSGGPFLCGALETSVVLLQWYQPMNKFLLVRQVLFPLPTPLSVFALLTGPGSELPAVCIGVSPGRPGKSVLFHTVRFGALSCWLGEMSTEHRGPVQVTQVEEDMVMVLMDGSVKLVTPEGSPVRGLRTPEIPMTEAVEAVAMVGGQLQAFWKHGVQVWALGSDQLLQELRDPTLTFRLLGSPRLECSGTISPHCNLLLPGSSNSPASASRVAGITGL
Chain of UniProt P22455 (whole entry, looked up): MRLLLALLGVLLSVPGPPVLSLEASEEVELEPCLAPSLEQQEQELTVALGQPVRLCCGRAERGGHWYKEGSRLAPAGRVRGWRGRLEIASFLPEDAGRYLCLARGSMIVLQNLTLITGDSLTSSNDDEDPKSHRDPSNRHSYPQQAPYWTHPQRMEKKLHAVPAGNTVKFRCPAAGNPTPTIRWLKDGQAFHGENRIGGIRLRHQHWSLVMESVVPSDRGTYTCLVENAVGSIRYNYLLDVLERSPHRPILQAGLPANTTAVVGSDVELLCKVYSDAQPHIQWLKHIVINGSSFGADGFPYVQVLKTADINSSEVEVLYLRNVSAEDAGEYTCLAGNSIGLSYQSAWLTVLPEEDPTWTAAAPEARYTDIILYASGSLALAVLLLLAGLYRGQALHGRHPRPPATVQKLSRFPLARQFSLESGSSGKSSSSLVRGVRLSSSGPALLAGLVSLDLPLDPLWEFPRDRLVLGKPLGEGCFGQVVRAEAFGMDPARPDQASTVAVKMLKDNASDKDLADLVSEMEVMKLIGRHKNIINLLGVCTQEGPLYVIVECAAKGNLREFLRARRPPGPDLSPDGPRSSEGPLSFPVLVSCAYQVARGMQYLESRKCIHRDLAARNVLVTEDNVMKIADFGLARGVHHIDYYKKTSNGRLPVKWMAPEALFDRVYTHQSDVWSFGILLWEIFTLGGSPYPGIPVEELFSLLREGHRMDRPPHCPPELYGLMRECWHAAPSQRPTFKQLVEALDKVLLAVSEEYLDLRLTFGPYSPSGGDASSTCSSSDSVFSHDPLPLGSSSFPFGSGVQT
Chain of UniProt Q16654 (whole entry, looked up): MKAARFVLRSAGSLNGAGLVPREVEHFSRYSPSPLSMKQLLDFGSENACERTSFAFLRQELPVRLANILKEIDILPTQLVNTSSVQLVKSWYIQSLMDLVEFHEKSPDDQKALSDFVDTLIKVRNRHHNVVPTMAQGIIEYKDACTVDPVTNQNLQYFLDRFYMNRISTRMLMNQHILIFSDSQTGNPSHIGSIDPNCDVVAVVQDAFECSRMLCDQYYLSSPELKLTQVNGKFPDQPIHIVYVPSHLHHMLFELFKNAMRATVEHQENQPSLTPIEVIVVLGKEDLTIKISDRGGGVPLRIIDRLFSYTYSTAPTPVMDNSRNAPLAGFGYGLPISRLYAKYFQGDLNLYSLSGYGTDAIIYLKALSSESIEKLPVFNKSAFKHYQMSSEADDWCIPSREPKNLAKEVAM
Chain of UniProt Q13188 (whole entry, looked up): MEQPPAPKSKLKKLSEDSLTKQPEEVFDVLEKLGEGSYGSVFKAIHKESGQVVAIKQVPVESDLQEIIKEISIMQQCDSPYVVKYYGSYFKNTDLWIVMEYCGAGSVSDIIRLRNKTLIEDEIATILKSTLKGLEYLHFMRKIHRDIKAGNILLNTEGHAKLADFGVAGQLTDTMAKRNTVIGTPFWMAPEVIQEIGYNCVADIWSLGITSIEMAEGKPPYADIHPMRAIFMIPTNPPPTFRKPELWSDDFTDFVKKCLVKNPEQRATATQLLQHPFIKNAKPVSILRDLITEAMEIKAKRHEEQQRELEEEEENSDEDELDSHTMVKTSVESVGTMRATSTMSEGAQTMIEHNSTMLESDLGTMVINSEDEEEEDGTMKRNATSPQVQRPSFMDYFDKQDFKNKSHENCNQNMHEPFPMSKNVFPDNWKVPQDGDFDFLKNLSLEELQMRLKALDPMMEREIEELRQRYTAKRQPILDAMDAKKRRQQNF

SMILES | target | assay | setting | scale | remaining activity [%]
Cc1cccc(C(=O)C#Cc2ccc(F)c(F)c2)c1 | rhlR | reporter gene, inhibitor, quorum sensing reporter strain | 10 µM, 1.5 h | baseline: DMSO | 69
CC#CC(=O)N1CCC[C@H]1c1nc(-c2ccc(C(=O)Nc3ccccn3)cc2)c2c(N)nccn12 | JAK3 | kinase activity, inhibitor, HotSpot radiometric | 100 nM, added: ATP 10 µM | – | 96.1 ± 1.5
O=C(NC1CCC1)c1ccc2nc(-c3cccc(NS(=O)(=O)NCCN4CCCCC4)c3)cn2c1 | ROS1 (Homo sapiens, UniProt P08922) | enzyme activity | 10 µM | – | 100
COc1cc(F)ccc1-c1ncnc(Nc2cccc(C[S@](C)(=N)=O)c2)n1 | FGFR4 (Homo sapiens, UniProt P22455) | kinase activity | 10 µM, added: 10 µM ATP | – | 98
COc1cc(C#CC(=O)c2ccc(Cl)cc2)ccc1O | rhlR | reporter gene, inhibitor, quorum sensing reporter strain | 10 µM, 1.5 h | baseline: DMSO | 65
COc1cc(-c2cncc3c2CN(C)Cc2cc(N4CCNCC4)ccc2-3)cc(OC)c1OC | MAP4K1 (Homo sapiens, UniProt Q92918) | kinase activity | 1 µM, human enzyme, added: ATP 10 µM | baseline: DMSO control | 109
C=CC(=O)N1CCC[C@@H](n2nc(-c3ccc(Oc4ccccc4)cc3)c3c(N)ncnc32)C1 | PDK4 (Homo sapiens, UniProt Q16654) | – | 0.1 µM | – | 85.2
COc1cc(C#CC(=O)c2cccc(C)c2)ccc1O | rhlR | reporter gene, inhibitor, quorum sensing reporter strain | 10 µM, 1.5 h | baseline: DMSO | 76
CNc1ncc2c(/C=C/C(=O)N3CCC(OC)CC3)nn(Cc3cccc(C(F)(F)F)c3)c2n1 | STK3 (Homo sapiens, UniProt Q13188) | kinase activity, inhibitor | 1 µM | baseline: untreated control | 100
O=C(O)c1ccc(Nc2ncc3c(n2)-c2ccc(Cl)cc2C(c2c(F)cccc2F)=NC3)cc1 | Rsk2(h) | kinase activity | 1 µM | – | 76
COc1cc(C#CC(=O)C(C)C)ccc1O | rhlR | reporter gene, inhibitor, quorum sensing reporter strain | 10 µM, 1.5 h | baseline: DMSO | 91
COc1ccc(F)cc1C(=O)NCc1ccc(-c2nn([C@@H](C)C(F)(F)F)c(N)c2C(N)=O)cc1 | JAK3 | kinase activity, inhibitor, HotSpot radiometric | 1000 nM, added: ATP at Km | – | 97 ± 1.7
COc1cc(Nc2ncc3c(n2)-c2ccc(Cl)cc2C(c2c(F)cccc2OC)=NC3)ccc1C(=O)O | TAOK2 | kinase activity | 1 µM | – | 96

For quick reference, copied from above:
SMILES | target | assay | setting | scale | remaining activity [%]
Cc1cccc(C(=O)C#Cc2ccc(F)c(F)c2)c1 | rhlR | reporter gene, inhibitor, quorum sensing reporter strain | 10 µM, 1.5 h | baseline: DMSO | 69
